Published values from different studies.
Every numbered part comes from another study and shows a few of its results, in no order. Changes are numbered by the printed parent chain.

Study 1 — technique: RNA Bind-n-Seq; form: RNA; matrix: in vitro; concentration: 365 nM; relative to: no-protein control; direction: higher = stronger binding; endpoint: RBNS enrichment (R)
Target: RNA binding protein fox-1 homolog 2, RRM domain, GST-SBP tag (RBFOX2, Homo sapiens, UniProt O43251-10, residues 100-194)
Setting: natural RNA segment, single round, ends assumed
Shared flanks, not repeated: GGGAGUUCUACAGUCCGACGAUC … UGGAAUUCUCGGGUGCCAA
Construct (chain): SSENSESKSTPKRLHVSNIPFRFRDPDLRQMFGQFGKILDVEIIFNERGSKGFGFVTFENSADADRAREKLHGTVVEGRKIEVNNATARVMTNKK
CAGAGCAGGAAAUCAGACCAAGACCCAGAGCUCUCUGCACCCCGUGCUCAGUUCCCAGGUGGUUGUGUGGGUGUGUGUGCGUGCAUGUGCCCGUCCGGUAAACUAUGGUC: 0.644
CCUGUGUCUAUGUGUAUGUACACAUACUUCUGUCAGAGAGAGAGAGACACCCACCAUGGGUCUUUGAUGCUAGAUAAGCCUAGAGGGAAGAUAAAGGGGCAGGAUCAAGG: 0.747
AGAUCCCCUCCUGUAAGUGGCCAGGCAUUCUCUCCCUGCCCUCUCUGGCCUCUGGGGUCAUACUCACUUCUUUAGCCAGCCCCAUCCCCUCCACCCCACACCUGAGUUCU: 0.803
UAGCGACAUCCAGAACACAAGCCCACCAGGGGUCCAGCCCAGGCUACCCACUCCCCUAGGGUCUCCCAGGCUCAGAAGGGGAUGCACGCCCCCUGUGGUCAAGCCUCUGG: 0.507
UCAGACAAGAACUCCCUGGUUGAAAGAAGCCACCUCGAUGCAAAGGCUCAAGGUCCAGGGAGAGACAACAGAGGAGUGUCCAAGACUUGCCCACACCUCCUCCCAUUUGC: 0.429
UUAUAAUUGCCAGAGCAGUAUUUUUUAUAUUGUAAACAGCGUGCGCAGCUCAGUGUGUGUCAGUGAUAAGAGUGUGGGAAGGCUUCAUCCUCUGCAGAGGCUGCUGAAGA: 0.244
CAUUGGAAGCCAGACUUGAUUCUGAGACAUGUUGAAUUGCUUUUUCCUCUCCCAUCAAAUGGCAUUAACACAAUUGGUAAAGAUGGUCCCUCAAAUGACUCCCCCCCCCC: 0.592

Study 2 — target: CCNA1, cyclin fold, Cln2 fusion (human); technique: yeast growth competition, sequencing; matrix: yeast; setting: weak parent motif; relative to: not given; direction: higher = stronger binding; endpoint: normalised enrichment score
Starting sequence: E2F1 docking peptide (human); PPVKRRLDLETDH; partner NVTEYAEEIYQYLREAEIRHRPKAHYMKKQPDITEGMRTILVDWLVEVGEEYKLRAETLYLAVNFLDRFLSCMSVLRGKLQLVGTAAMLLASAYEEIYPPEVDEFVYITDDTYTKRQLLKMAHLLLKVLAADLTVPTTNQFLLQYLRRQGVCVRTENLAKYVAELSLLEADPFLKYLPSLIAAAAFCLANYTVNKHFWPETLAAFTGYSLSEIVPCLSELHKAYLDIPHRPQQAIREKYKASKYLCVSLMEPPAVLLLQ
D12K: 0.435
D12Q: 1.21
H13K: 0.631
R6M: 0.545
V3W: 0.401
L7V: 0.231
R5Q: 0.404
D12L: 0.309

Study 3 — technique: universal PBM; form: double-stranded DNA, one strand shown; matrix: in vitro; concentration: not given; direction: higher = stronger binding; endpoint: E-score
Target: Sal-like protein 4, full length isoform B (SALL4, Homo sapiens, UniProt Q9UJQ4-2, residues 1-616)
Setting: 8-mer, flanks averaged, mean of replicates
GATGGTTA: 0.0555
ACAAGGAA: 0.072
CGATAGAC: -0.0221
AACGCCTA: -0.00957
AGGGAATA: 0.147
AACCCGGT: -0.335
CTTCAAGC: -0.195
GACACTAC: -0.0398
AATCGGCA: 0.0736

Other studies, line by line
PhoQ, residues 284 288 289 292 302 303 SSTMSV
fold induction (PhoP, residues 12 14 15 18 19 AWHSL (Escherichia coli, UniProt P23836); Sort-seq, refers to: YFP reporter; E. coli; PhoQ-PhoP variant library, added: 10 µM Mg2+; relative to: high Mg2+ state, higher = stronger signaling): 1.77
